Results gathered from unrelated publications.
Parts stem from different laboratories: compare values within a part only.
Sequence of UniProt Q9SKN5 (whole entry, looked up): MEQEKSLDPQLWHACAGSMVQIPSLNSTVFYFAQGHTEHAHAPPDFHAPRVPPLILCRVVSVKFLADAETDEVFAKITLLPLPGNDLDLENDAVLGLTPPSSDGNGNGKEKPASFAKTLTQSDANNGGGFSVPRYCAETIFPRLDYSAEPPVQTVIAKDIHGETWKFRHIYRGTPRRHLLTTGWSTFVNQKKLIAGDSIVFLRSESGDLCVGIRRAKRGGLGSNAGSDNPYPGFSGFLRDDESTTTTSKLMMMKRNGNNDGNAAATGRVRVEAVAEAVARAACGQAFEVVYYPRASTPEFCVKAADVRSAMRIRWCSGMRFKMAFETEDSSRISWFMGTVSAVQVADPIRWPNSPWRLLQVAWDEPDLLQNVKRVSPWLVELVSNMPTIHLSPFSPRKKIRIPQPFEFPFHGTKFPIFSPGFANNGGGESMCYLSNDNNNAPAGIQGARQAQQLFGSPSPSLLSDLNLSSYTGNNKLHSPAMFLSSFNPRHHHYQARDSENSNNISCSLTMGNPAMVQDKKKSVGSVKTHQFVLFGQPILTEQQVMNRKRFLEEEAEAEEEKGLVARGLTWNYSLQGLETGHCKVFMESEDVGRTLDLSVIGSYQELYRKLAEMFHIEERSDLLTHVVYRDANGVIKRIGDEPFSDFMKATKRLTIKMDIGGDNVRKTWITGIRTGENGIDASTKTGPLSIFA
Sequence of UniProt P49761 (whole entry, looked up): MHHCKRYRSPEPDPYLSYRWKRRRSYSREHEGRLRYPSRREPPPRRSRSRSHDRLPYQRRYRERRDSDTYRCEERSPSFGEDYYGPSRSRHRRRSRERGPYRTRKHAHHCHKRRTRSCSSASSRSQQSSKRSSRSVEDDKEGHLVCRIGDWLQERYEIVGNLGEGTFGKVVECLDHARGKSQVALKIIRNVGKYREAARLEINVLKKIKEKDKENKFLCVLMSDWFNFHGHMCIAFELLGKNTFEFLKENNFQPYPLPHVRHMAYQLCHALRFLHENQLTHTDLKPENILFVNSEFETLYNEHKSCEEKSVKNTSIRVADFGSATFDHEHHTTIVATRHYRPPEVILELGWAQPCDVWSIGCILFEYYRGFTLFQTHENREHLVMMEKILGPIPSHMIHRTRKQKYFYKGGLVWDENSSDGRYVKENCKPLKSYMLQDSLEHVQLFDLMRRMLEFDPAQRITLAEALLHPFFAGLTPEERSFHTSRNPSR
Sequence of UniProt O96017 (whole entry, looked up): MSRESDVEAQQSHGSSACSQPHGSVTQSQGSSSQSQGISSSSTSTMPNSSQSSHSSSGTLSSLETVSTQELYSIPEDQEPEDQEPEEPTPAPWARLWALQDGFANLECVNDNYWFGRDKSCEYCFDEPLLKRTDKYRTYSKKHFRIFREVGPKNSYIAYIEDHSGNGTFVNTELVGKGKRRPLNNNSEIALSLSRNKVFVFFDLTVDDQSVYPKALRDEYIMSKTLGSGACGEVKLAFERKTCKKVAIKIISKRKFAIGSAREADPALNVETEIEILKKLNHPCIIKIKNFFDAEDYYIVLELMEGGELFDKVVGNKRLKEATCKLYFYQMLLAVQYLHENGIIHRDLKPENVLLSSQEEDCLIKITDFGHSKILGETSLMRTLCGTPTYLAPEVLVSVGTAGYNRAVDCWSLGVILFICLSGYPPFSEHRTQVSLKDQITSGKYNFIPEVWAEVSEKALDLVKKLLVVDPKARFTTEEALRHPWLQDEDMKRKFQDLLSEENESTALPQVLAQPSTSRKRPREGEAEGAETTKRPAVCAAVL
Sequence of UniProt P37173 (whole entry, looked up): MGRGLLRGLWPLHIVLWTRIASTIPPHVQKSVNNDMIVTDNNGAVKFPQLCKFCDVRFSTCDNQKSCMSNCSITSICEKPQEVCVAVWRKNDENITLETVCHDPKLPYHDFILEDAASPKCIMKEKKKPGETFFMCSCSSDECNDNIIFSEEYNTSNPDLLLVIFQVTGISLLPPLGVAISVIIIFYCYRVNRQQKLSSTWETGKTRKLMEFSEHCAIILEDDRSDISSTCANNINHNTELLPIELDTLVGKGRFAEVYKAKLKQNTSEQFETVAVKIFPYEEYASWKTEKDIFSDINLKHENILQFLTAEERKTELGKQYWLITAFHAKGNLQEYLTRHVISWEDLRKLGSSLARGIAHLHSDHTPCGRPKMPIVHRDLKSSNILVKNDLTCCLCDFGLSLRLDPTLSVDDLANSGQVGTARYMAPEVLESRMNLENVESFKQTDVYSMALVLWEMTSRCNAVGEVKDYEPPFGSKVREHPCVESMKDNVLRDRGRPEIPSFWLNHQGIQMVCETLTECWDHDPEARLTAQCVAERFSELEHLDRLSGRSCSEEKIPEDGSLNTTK
Sequence of UniProt O95747 (whole entry, looked up): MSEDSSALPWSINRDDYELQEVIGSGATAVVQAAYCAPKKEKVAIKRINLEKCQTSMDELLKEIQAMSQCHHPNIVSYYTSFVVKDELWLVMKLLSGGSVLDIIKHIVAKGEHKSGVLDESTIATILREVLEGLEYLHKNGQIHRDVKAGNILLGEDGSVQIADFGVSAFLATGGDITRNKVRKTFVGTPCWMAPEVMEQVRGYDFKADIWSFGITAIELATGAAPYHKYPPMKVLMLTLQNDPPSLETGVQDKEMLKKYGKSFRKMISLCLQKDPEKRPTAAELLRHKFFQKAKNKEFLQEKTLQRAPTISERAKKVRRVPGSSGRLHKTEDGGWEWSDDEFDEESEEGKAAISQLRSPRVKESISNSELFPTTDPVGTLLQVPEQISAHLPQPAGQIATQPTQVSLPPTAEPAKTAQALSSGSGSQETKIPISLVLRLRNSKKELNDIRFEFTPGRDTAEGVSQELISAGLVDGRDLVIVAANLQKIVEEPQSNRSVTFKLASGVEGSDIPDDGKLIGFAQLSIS
Sequence of UniProt O14920 (whole entry, looked up): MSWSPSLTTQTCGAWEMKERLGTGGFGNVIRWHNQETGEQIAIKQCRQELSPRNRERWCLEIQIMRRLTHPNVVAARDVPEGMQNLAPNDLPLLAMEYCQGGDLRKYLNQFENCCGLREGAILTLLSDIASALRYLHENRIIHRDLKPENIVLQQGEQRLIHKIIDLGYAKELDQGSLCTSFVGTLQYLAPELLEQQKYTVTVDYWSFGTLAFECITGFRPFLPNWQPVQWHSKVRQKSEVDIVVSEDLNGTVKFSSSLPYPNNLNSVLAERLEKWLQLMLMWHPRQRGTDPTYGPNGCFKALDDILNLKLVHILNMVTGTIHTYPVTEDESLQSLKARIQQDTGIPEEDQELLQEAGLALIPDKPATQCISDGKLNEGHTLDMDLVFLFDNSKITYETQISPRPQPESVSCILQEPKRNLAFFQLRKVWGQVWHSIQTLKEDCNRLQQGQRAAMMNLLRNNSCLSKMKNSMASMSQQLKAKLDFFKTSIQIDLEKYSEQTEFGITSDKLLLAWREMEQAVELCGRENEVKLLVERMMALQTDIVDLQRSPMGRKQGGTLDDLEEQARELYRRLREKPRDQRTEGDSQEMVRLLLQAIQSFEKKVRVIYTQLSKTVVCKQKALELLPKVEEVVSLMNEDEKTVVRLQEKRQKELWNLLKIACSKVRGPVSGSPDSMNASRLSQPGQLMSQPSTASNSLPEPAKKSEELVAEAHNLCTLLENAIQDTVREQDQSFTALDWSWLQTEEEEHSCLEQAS
Sequence of UniProt Q9C5X0 (whole entry, looked up): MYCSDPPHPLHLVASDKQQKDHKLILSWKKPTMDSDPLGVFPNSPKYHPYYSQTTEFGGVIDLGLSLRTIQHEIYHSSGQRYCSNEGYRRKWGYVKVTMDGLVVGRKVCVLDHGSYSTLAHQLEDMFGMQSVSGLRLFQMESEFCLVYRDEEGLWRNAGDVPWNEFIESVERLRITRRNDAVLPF
Sequence of UniProt Q00535 (whole entry, looked up): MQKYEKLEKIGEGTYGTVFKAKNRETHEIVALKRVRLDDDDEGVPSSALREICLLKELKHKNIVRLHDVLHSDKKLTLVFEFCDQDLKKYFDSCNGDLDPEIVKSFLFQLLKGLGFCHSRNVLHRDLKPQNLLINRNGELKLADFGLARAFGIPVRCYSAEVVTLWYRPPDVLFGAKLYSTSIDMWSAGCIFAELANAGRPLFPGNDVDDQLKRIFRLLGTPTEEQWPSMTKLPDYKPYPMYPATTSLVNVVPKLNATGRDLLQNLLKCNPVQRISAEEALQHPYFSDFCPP

Series 1
SMILES: CCC(=O)N[C@@H]1CC[C@H](C(=O)N(C)c2ccc(-c3nc4ccccc4o3)cc2)C1
Read-out: cell-free assay
Technique: competition with immobilised ligand
Concentration: 1 µM
| target | remaining binding |
| --- | --- |
| Dual specificity protein kinase CLK3 (CLK3, Homo sapiens, UniProt P49761) | 100% |
| Epidermal growth factor receptor (EGFR, Homo sapiens, UniProt P00533, del747-752/P753S) | 75% |
| Receptor-interacting serine/threonine-protein kinase 1 (RIPK1, Homo sapiens, UniProt Q13546) | 100% |
| Fibroblast growth factor receptor 4 (FGFR4, Homo sapiens, UniProt P22455) | 89% |

Series 2
Substance: IAA7 (Arabidopsis thaliana, UniProt Q38825)
Sequence of UniProt Q38825 (whole entry, looked up): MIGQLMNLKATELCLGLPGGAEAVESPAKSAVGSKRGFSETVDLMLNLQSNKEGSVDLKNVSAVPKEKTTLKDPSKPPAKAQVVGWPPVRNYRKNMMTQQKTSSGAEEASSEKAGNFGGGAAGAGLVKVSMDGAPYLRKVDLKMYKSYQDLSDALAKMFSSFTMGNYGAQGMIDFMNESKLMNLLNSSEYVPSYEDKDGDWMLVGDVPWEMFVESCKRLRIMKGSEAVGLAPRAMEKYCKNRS
Technique: two-hybrid
Direction: higher = firmer interaction
| partner | scale | positive tests |
| --- | --- | --- |
| IAA34 (Arabidopsis thaliana, UniProt Q9C5X0) | relative to: out of 4 tests | 4 |
| ARF10 575-693 (Arabidopsis thaliana, UniProt Q9SKN5) | relative to: out of 4 tests | 0 |
| IAA13 (Arabidopsis thaliana, UniProt Q38831) | relative to: out of 4 tests | 2 |
| ARF4 660-788 (Arabidopsis thaliana, UniProt Q9ZTX9) | relative to: out of 4 tests | 3 |
| IAA28 (Arabidopsis thaliana, UniProt Q9XFM0) | relative to: out of 3 tests | 2 |

Series 3
SMILES: CCCNC(=O)Nc1ccc(Oc2ncnc3cc(OC)c(OC)cc23)cc1Cl
Read-out: enzyme activity
Action: inhibitor
Concentration: 0.5 µM
Relative to: control
| target | remaining activity |
| --- | --- |
| Protein kinase C alpha type (PRKCA, Homo sapiens, UniProt P17252) | 99.3% |
| Death-associated protein kinase 2 (DAPK2, Homo sapiens, UniProt Q9UIK4) | 108% |
| Serine/threonine-protein kinase STK11 (STK11, Homo sapiens, UniProt Q15831) | 87.3% |
| Death-associated protein kinase 1 (DAPK1, Homo sapiens, UniProt P53355) | 104% |
| cGMP-dependent protein kinase 1, isoform beta (PRKG1, Homo sapiens, UniProt Q13976) | 95.4% |
| Calcium/calmodulin-dependent protein kinase type II subunit delta (CAMK2D, Homo sapiens, UniProt Q13557) | 89.4% |
| cAMP-dependent protein kinase catalytic subunit alpha (PRKACA, Homo sapiens, UniProt P17612) | 99.7% |
| Inhibitor of nuclear factor kappa-B kinase subunit epsilon (IKBKE, Homo sapiens, UniProt Q14164) | 93.5% |
| Protein kinase C beta type, isoform beta-I (PRKCB, Homo sapiens, UniProt P05771) | 100% |
| Cyclin-dependent kinase 5, with p25 (CDK5, Homo sapiens, UniProt Q00535) | 95.7% |
| TGF-beta receptor type-1 (TGFBR1, Homo sapiens, UniProt P36897) | 102% |
| Serine/threonine-protein kinase OSR1 (OXSR1, Homo sapiens, UniProt O95747) | 96.5% |
| Calcium/calmodulin-dependent protein kinase kinase 2 (CAMKK2, Homo sapiens, UniProt Q96RR4) | 91.5% |
| Mitogen-activated protein kinase kinase kinase 3 (MAP3K3, Homo sapiens, UniProt Q99759) | 95.3% |
| Cyclin-dependent kinase 4, with cyclin D1 (CDK4, Homo sapiens, UniProt P11802) | 102% |
| Serine/threonine-protein kinase Chk2 (CHEK2, Homo sapiens, UniProt O96017) | 80% |
| Inhibitor of nuclear factor kappa-B kinase subunit beta (IKBKB, Homo sapiens, UniProt O14920) | 100% |
| STE20/SPS1-related proline-alanine-rich protein kinase (STK39, Homo sapiens, UniProt Q9UEW8) | 88% |
| Serine/threonine-protein kinase 10 (STK10, Homo sapiens, UniProt O94804) | 35% |
| TGF-beta receptor type-2 (TGFBR2, Homo sapiens, UniProt P37173) | 109% |
| G protein-coupled receptor kinase 3 (GRK3, Homo sapiens, UniProt P35626) | 96.6% |
| Tyrosine-protein kinase Lyn, isoform B (LYN, Homo sapiens, UniProt P07948) | 94.1% |
| Serine/threonine-protein kinase Nek2 (NEK2, Homo sapiens, UniProt P51955) | 92.3% |
| Mitogen-activated protein kinase 9 (MAPK9, Homo sapiens, UniProt P45984) | 104% |

Series 4
Target: Histone acetyltransferase KAT6A, winged helix 1, GST fusion (KAT6A, Homo sapiens, UniProt Q92794, residues 1-85)
Technique: protein binding microarray
Form: double-stranded DNA, one strand shown
Matrix: in vitro
Concentration: not given
Setting: 8-mer, flanks averaged, mean of 2 arrays, mostly near background
Relative to: not given
Direction: higher = stronger binding
Residues (chain): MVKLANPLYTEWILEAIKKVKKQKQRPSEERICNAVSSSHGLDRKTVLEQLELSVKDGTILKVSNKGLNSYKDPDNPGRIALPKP
| Sequence | E-score |
| --- | --- |
| GAGAAGTA | -0.0427 |
| AGGTCTCC | 0.0606 |
| CAATAAAA | -0.282 |
| ATAATCGA | -0.134 |
| AGTGGTCC | -0.0788 |
| TATGAATA | -0.142 |
| GTTTGCTA | -0.105 |
| CGTGCAGA | -0.0155 |

Series 5
Target: Sal-like protein 4, full length isoform B (SALL4, Homo sapiens, UniProt Q9UJQ4-2, residues 1-616)
Technique: universal PBM
Form: double-stranded DNA, one strand shown
Matrix: in vitro
Concentration: not given
Setting: 8-mer, flanks averaged, mean of replicates
Direction: higher = stronger binding
| Sequence | E-score |
| --- | --- |
| CCAATTTA | 0.244 |
| AGGCACTG | -0.138 |
| GTTTGGGA | -0.0391 |
| ACTCAATC | 0.0378 |
| GTTTGTTA | 0.213 |
| GGGTAACA | -0.0419 |
| AAAATACT | 0.28 |
| ACACGAAC | -0.0655 |

Series 6
Target: Hepatocyte nuclear factor 3-alpha (Foxa1, Mus musculus, UniProt P35582, residues 1-468, full length assumed)
Technique: EMSA with sequencing
Form: double-stranded DNA, one strand shown
Matrix: in vitro
Concentration: 10 and 20 nM
Setting: whole designed probe, mean of two concentrations, ends assumed
Relative to: negative control set to 0
Direction: higher = stronger binding
All sequences stand within: GTGAGCGGTGCCCATTGATGGGGAAC … TTTCACTGGGATCGTGGGGAC
Target sequence (chain): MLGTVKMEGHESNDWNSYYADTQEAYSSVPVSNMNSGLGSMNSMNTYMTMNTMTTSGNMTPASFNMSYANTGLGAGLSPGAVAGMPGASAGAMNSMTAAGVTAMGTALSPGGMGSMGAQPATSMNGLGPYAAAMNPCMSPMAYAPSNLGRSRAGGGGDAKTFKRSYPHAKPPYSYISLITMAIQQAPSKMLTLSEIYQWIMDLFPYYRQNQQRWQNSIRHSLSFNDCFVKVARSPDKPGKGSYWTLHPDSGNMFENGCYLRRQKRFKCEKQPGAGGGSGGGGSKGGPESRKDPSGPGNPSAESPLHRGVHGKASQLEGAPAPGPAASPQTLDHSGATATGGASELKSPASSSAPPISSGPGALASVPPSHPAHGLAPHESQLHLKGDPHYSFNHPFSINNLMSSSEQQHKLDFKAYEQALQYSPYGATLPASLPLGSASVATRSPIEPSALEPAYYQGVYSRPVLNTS
| Sequence | normalised bound fraction [ratio] |
| --- | --- |
| ATCTTCCCCCTCTTCCTTGCCCCACCAGCTCACCTTCCCGGGTTGTTTACTTTGAGCAAAGTAAACAAAGCCGGCATTCGTTAACCCTCTTCTGGCGCAAACTGCACATTGGTCTGGATCTAACATGGTCCTTTGGCGACGCCAGGCTCCGGGAGAGCAAAGCACCGTGTCAGGGCCATGATCCGGGGTGGCC | 0.518 |
| CACCAAACTTGACCTGCTCTCCACCCTCGGATCTAGTCAGGCTAGACAACACTGCTGTCAACAAATTTTAGGATCTCTGTGGCTGAACCTGGATGTTTACTTTTCATGCACACAGAGGCTACTGTGGATCTAGAGCCTCTCCATGGAAGCTCCCTGCAGATGGGTGGCTCCAGTCTCCAAGGGCTTCCATCTT | 0.446 |
| ATCTTCCCCCTCTTCCTTGCCCCACCAGCTCACCTTCCCGGGTATCTGCAAATAAGTATTTATTTTCAAGCCGGCATTCGTTAACCCTCTTCACGCGCATACTGCCAAAGTAAACAGATCTAACATGGTCCTTTGGCGACGCCAGGCTCCGGGAGAGCAAAGCACCGTGTCAGGGCCATGATCCGGGGTGGCC | 0.449 |
| TGCTGGGTAAGACACTTAAGGCCAGCGCTGTGACTGAACCATCTGGTTTAAATGCACTTTCTGGCCCTGGCTTCTCCCTGTCCCTTTCACTTCATGTTTACACAGGCTGGGATGCGATGCTGATGGATCATCATAGATTGGTATCGTTCCTTTCTCAAACTCTTTTTTTTCTTCATTAGAAAAGACAAACTTA | 0.38 |
| GTGTGTGCGCGCGCGTGTGTGTGTGTTTTCTTAAGCCGGGCTATTCAAACCCTGCTGCAATTCTCCGGTAAACAATGTTACATGGGGCATAATGCAAATAAACGGATTGCAAACGGCGCGGTTCCAATGATTCATAGCCGGCCCGGTGGAGCAGCCAGTGCCGGATTTCTCCCTTTTTTTGCAGATCTGCAGA | 0.428 |

For quick reference, copied from above (series 4):
| Sequence | E-score |
| --- | --- |
| AGGTCTCC | 0.0606 |
| AGTGGTCC | -0.0788 |
| CAATAAAA | -0.282 |
